Measured values from different studies.
Protocols differ between the studies behind these lines. Numbers after ± are the reported error.

O=C(CCCCCONC(=O)c1nc(-c2ccc(O)cc2)cs1)NO  IC50 (neonatal foreskin fibroblasts; cytotoxicity, sulforhodamine B; 72 h): 5.14 µM
CNS(=O)(=O)Nc1nccc(Cc2c(C)c3ccc(Oc4ncccc4F)cc3oc2=O)c1F  IC50 (SKGT4; cell viability; 7 days): > 1 µM
CCCc1cc2cc(-n3nc(C(F)F)c4c3CC3(CCC3)CC4=O)cc(N3CCC(O)CC3)c2c(=O)[nH]1  IC50 (SK-OV-3; cell growth or viability, MTS): 3.11 µM
CC(C)(C)c1cnc(CSc2cnc(NC(=O)C3CCN(C(=O)CCCCCCN4Cc5cc6c(cc5C4)C(=O)N(C4CCC(=O)NC4=O)C6=O)CC3)s2)o1 (stereo not drawn)  IC50 (REH; cell growth or viability, MTT): 0.0403 µM
COc1ccccc1/C=C1\C(=O)N(C)c2ccc(Nc3nc(C)nc4ccccc34)cc21  IC50 (H22; cell growth or viability, MTT): 4.97 µM
COc1ccc(CC[C@H]2OC(=O)[C@@H]3CCCCN3C(=O)C(=O)C(C)(C)COC(=O)C=CCCN(C)C(=O)[C@H](CC(C)C)N(C)C(=O)[C@H]3CCCN3C(=O)[C@H](Cc3ccc(O)cc3)NC(=O)[C@H](c3ccccc3)NC(=O)CCC(=O)Nc3cccc2c3)cc1OC  IC50 (HUVEC; thymidine uptake, inhibitor): 0.01 ± 0.002 µM
O=C1/C(=N\c2cccc(Cl)c2)c2ccccc2N1Cc1ccccc1  IC50 (L02; cell growth or viability, MTT; 48 h): 50.9 µM
CC[C@H](C)[C@H](NC(=O)[C@H](CCCCN)NC(=O)[C@H](Cc1ccccc1)NC(=O)[C@H]1CCC[C@@H]1NC(=O)CN)C(=O)N[C@H](CC(=O)N[C@@H](CCCCN)C(=O)N[C@@H](CCCCN)C(=O)N[C@H]1CCC[C@@H]1C(=O)N[C@@H](C)C(=O)N[C@@H](CCCCN)C(=O)N[C@@H](CO)C(=O)N[C@H](CC(N)=O)Cc1ccccc1)[C@@H](C)CC  IC50 (HUVEC; cytotoxicity): 94.8 mg/L
Cn1ncc(-c2ccc3c(=O)[nH]nc(CN)c3c2)c1-c1c(F)c(Cl)cc(OC2CC2)c1C#N  IC50 (CoC1/DDP; cell viability, inhibitor, CellTiter-Glo; 120 h): 2.12 µM
CC(C)OC(=O)[C@H](CO)NCc1cc(Cl)c(OCc2cccc(-c3ccccc3)c2Br)cc1OCc1cccnc1  IC50 (human PBMC; MTT): > 10 µM
NC(=O)c1ccc(-c2ccccc2Cl)c2c3c([nH]c12)CC[C@H](N)C3  IC50 (MOLT-4; cell growth or viability): 0.0209 µM
COc1ccc(CC[C@H]2OC(=O)[C@@H]3CCCCN3C(=O)C(=O)C(C)(C)COC(=O)C=CCCN(C)C(=O)[C@H](CC(C)C)N(C)C(=O)[C@H]3CCCN3C(=O)[C@H](CCc3ccccc3)NC(=O)[C@H](c3ccccc3)NC(=O)CCC(=O)Nc3cccc2c3)cc1OC  IC50 (HUVEC; thymidine uptake, inhibitor): 0.015 ± 0.002 µM
COc1ccc2c(c1)CN1C(=S)N([C@H](C)c3ccccc3)C(=O)C1=N2  IC50 (CCRF-CEM; cell growth or viability, resazurin; 72 h): 1.53 µM
COc1ccc(CC[C@H]2OC(=O)[C@@H]3CCCCN3C(=O)C(=O)C(C)(C)COC(=O)C=CCCN(C)C(=O)[C@H](CC(C)C)N(C)C(=O)[C@H]3CCCN3C(=O)[C@H](Cc3ccc(F)cc3)NC(=O)[C@H](c3ccccc3)NC(=O)CCC(=O)Nc3cccc2c3)cc1OC  IC50 (HUVEC; thymidine uptake, inhibitor): 0.057 ± 0.013 µM
O=C1C2=Nc3ccccc3CN2C(=S)N1[C@H]1CCCc2ccccc21  IC50 (CCRF-CEM; cell growth or viability, resazurin; 72 h): 25.1 µM
Cc1[nH]c(=S)[nH]c(=O)c1/N=N/c1nnc(S)[nH]1  IC50 (Vero; MTT; 72 h): 19.6 ± 2.65 mg/L
COc1ccc(CC[C@H]2OC(=O)[C@@H]3CCCCN3C(=O)C(=O)C(C)(C)COC(=O)C=CCCN(C)C(=O)[C@H](CC(C)C)N(C)C(=O)[C@H]3CCCCN3C(=O)[C@H](Cc3ccccc3)N(C)C(=O)[C@H](c3ccccc3)NC(=O)CCC(=O)Nc3cccc2c3)cc1OC  IC50 (HUVEC; thymidine uptake, inhibitor): 1.92 ± 0.53 µM
CC[C@H](C)[C@H](NC(=O)[C@H](CCCCN)NC(=O)[C@H]1CCC[C@@H]1NC(=O)[C@H](CC(C)C)NC(=O)CN)C(=O)N[C@H](CC(=O)N[C@@H](CCCCN)C(=O)N[C@@H](CCCCN)C(=O)N[C@H]1CCC[C@@H]1C(=O)N[C@@H](CC(C)C)C(=O)N[C@@H](CCCCN)C(=O)N[C@@H](CO)CC(=O)N[C@@H](Cc1ccccc1)C(N)=O)[C@@H](C)CC  IC50 (HUVEC; cytotoxicity): 25.4 mg/L
COc1cc(C(=O)N/N=C/c2cccc3ccccc23)cc(OC)c1OC  IC50 (REH; cell growth or viability, MTT; 48 h): 0.0926 µM
CC(C)c1ccc(N(C)c2ccc3c(c2)OCC[C@H]3CNc2cnccc2C(=O)O)cc1  IC50 (647-V; cell growth or viability, ATP luminescence; 7 days): 0.0122 µM
COc1ccc(CC[C@H]2OC(=O)[C@@H]3CCCCN3C(=O)C(=O)C(C)(C)COC(=O)C=CCCN(C)C(=O)[C@H](CC(C)C)N(C)C(=O)[C@H]3CCCN3C(=O)[C@@H](Cc3ccccc3)N(C)C(=O)[C@H](Cc3ccccc3)NC(=O)CCC(=O)Nc3cccc2c3)cc1OC  IC50 (HUVEC; thymidine uptake, inhibitor): > 20 µM
NC1=C(Cl)C(=O)c2ccccc2C1=O  IC50 (MOLT-3; cell growth or viability, XTT): 8.28 µM
C[C@H](c1cccc2ccccc12)N1C(=O)C2=Nc3ccccc3CN2C1=S  IC50 (CCRF-CEM; resazurin; 72 h): 0.52 ± 0.05 µM
COc1ccc(CC[C@H]2OC(=O)[C@@H]3CCCCN3C(=O)C(=O)C(C)(C)COC(=O)C=CCCN(C)C(=O)[C@H](CC(C)C)N(C)C(=O)[C@H]3CCCN3C(=O)[C@H](Cc3ccccc3)N(C)C(=O)[C@H](Cc3ccc(-c4ccccc4)cc3)NC(=O)CCC(=O)Nc3cccc2c3)cc1OC  IC50 (HUVEC; thymidine uptake, inhibitor): > 20 µM
CC[C@H](C)[C@H](NC(=O)C[C@H](CCCCN)NC(=O)[C@H](Cc1ccccc1)NC(=O)C[C@H](CC(C)C)NC(=O)CN)C(=O)N[C@H](C(=O)N[C@@H](CCCCN)CC(=O)N[C@@H](CCCCN)C(=O)N[C@H](CC(=O)N[C@@H](CC(C)C)C(=O)N[C@@H](CCCCN)CC(=O)N[C@@H](CC(C)C)C(=O)N[C@@H](Cc1ccccc1)C(N)=O)[C@@H](C)CC)[C@@H](C)CC  IC50 (HUVEC; cytotoxicity): 14.3 mg/L
Cc1ccc(-c2ccc(C)cn2)nc1  IC50 (L02; cell growth or viability, MTT; 48 h): > 50 µM
CC1(C)[C@H](NC(=O)c2cnn(CCO)c2)C(C)(C)[C@H]1Oc1ccc(C#N)c(Cl)c1  IC50 (MDA-MB-453; cell growth or viability, CCK-8; 7 days): 0.91 µM
C[C@H](c1ccccc1)N1C(=O)C2=Nc3cc(Cl)ccc3CN2C1=S  IC50 (CCRF-CEM; resazurin; 72 h): 0.23 ± 0.02 µM
COc1ccnc(-c2cc(OC)ccn2)c1.[Co+2].[O-]c1c(I)cc(I)c2cccnc12.[O-]c1c(I)cc(I)c2cccnc12  IC50 (HL-7702 normal hepatocytes; cell viability, MTT; 48 h): 75.9 ± 1.15 µM
c1ccc2nc3ccccc3cc2c1  IC50 (ARPE-19; cytotoxicity, CCK-8; 48 h): 2.53 ± 0.831 µM
COc1ccc(CC[C@H]2OC(=O)[C@@H]3CCCCN3C(=O)C(=O)C(C)(C)COC(=O)C=CCCN(C)C(=O)[C@H](Cc3ccccc3)NC(=O)[C@@H](Cc3ccccc3)N(C)C(=O)[C@@H]3CCCN3C(=O)[C@@H](CC(C)C)N(C)C(=O)CCC(=O)Nc3cccc2c3)cc1OC  IC50 (HUVEC; thymidine uptake, inhibitor): 0.955 ± 0.113 µM
COC(=O)N1c2ccc3c(nc(Cc4ccccc4)n3[C@@H]3CCC[C@@H](C(=O)O)C3)c2CC[C@@H]1C  IC50 (MDA-MB-453; cell growth or viability, ATP luminescence; 10 days): 0.158 µM
c1ccc(-c2ccnc3c2ccc2c(-c4ccccc4)ccnc23)cc1  IC50 (L02; cell growth or viability, MTT; 48 h): > 50 µM
COc1cccc(N2C(=O)C3=Nc4ccccc4CN3C2=S)c1  IC50 (CCRF-CEM; resazurin; 72 h): 28.1 ± 0.83 µM
COc1ccc(CC[C@H]2OC(=O)[C@@H]3CCCCN3C(=O)C(=O)C(C)(C)COC(=O)C=CCCN(C)C(=O)CN(C)C(=O)[C@H]3CCCN3C(=O)[C@H](CC(C)C)N(C)C(=O)[C@H](Cc3ccccc3)NC(=O)CCC(=O)Nc3cccc2c3)cc1OC  IC50 (HUVEC; thymidine uptake, inhibitor): > 20 µM
N#Cc1c(N)nc2c(c1-c1ccc(CO)o1)Cc1cccc(O)c1-2  IC50 (HuT78; cell growth or viability, ATP luminescence): 20.9 µM
CCOc1cncc(-c2ccc(NC(=O)C3(c4ccnc(NS(=O)(=O)C5CC5)n4)CCOCC3)nc2)n1  IC50 (RD-ES; cell growth, CellTiter-Glo; 72 h): 10 µM
NCC1OC(OC2C(CO)OC(OC3C(O)C(N)CC(N)C3OC3OC(CN)C(O)C(O)C3N)C2O)C(N)C(O)C1O (stereo not drawn)  IC50 (ARPE-19; cytotoxicity, CCK-8; 48 h): > 100 µM
CCNC(NN=Cc1ccc([N+](=O)[O-])o1)=[S+][Au-][Cl]  IC50 (IMR-90; cell growth or viability, resazurin): > 100 µM
Cc1cnc2nc1Nc1cccc(c1)COCc1cc(ccc1OCCN1CCOCC1)N2  IC50 (HEL 92.1.7 JAK2 V617F; cell growth, CCK-8): 6.21 µM
O=C1Nc2ccccc2C12NC(c1ccc(F)cc1)C1(C(=O)Nc3ccccc31)N2Cc1ccc(F)cc1 (stereo not drawn)  IC50 (L02; cell growth or viability, MTT; 48 h): 68.8 µM
C=CC(=O)N1CCCC(n2c(=O)c3ncccc3n(Cc3ccc(Oc4ccccc4)cc3)c2=O)C1 (stereo not drawn)  IC50 (HC-1; cell proliferation, MTT; 72 h): 2.5 µM

A few entries again:
O=C(CCCCCONC(=O)c1nc(-c2ccc(O)cc2)cs1)NO  IC50 (neonatal foreskin fibroblasts; cytotoxicity, sulforhodamine B; 72 h): 5.14 µM
CNS(=O)(=O)Nc1nccc(Cc2c(C)c3ccc(Oc4ncccc4F)cc3oc2=O)c1F  IC50 (SKGT4; cell viability; 7 days): > 1 µM
CCCc1cc2cc(-n3nc(C(F)F)c4c3CC3(CCC3)CC4=O)cc(N3CCC(O)CC3)c2c(=O)[nH]1  IC50 (SK-OV-3; cell growth or viability, MTS): 3.11 µM
